Experimental data of several laboratories.
Each line is one published result; not all experiments were run side by side. ± marks the error that the study gave.
Organism: Klebsiella pneumoniae

Compound	assay	test system	setting	scale	quantity	result
CC(C)C[C@H](NC(=O)[C@H](Cc1ccc(O)cc1)NC(=O)[C@@H]1CCCN1C(=O)[C@H](CCCNC(=N)N)NC(=O)[C@@H]1CCCN1C(=O)[C@H](CCCCN)NC(=O)[C@H](CC(=O)O)NC(=O)[C@@H]1CCCN1C(=O)[C@H](CCCNC(=N)N)NC(=O)C1(N)CCCCC1)C(=O)N1CCC[C@H]1C(=O)N[C@@H](CCCNC(=N)N)C(=O)N1CCC[C@H]1C(=O)N[C@@H](CCCNC(=N)N)C(=O)N1CCC[C@H]1C(=O)N1CCC[C@H]1C(=O)N[C@@H](CCCNC(=N)N)C(=O)N1CCC[C@H]1C(=O)N[C@H](C(=O)N[C@@H](CCCNC(=N)N)C(=O)N[C@@H](CSSC[C@H](NC(=O)[C@H](CCCNC(=N)N)NC(=O)[C@@H](NC(=O)[C@@H]1CCCN1C(=O)[C@H](CCCNC(=N)N)NC(=O)[C@@H]1CCCN1C(=O)[C@@H]1CCCN1C(=O)[C@H](CCCNC(=N)N)NC(=O)[C@@H]1CCCN1C(=O)[C@H](CCCNC(=N)N)NC(=O)[C@@H]1CCCN1C(=O)[C@H](CC(C)C)NC(=O)[C@H](Cc1ccc(O)cc1)NC(=O)[C@@H]1CCCN1C(=O)[C@H](CCCNC(=N)N)NC(=O)[C@@H]1CCCN1C(=O)[C@H](CCCCN)NC(=O)[C@H](CC(=O)O)NC(=O)[C@@H]1CCCN1C(=O)[C@H](CCCNC(=N)N)NC(=O)C1(N)CCCCC1)C(C)C)C(=O)NN)C(=O)NN)C(C)C	membrane disruption, propidium iodide uptake	13883	90 min, 37 °C	–	MDC	8.3 ± 0.3 µg/mL
Cc1c(CN(C)C(=O)/C=C/c2cnc3c(c2)CCC(=O)N3)oc2ccccc12	broth microdilution	S47889	–	–	MIC	> 32 µg/mL
O=C(N[C@H](CO)[C@H](O)c1ccc([N+](=O)[O-])cc1)C(Cl)Cl	broth microdilution	NCTC 13438	–	baseline: 5% CO2 over ambient air	MIC fold shift	0.5
C[C@@H](O)[C@H]1C(=O)N2C(C(=O)O)=C(S[C@@H]3CN[C@H](C(=O)N(C)C)C3)[C@H](C)[C@H]12	–	ATCC 700603, mouse lung infection, lung	intraperitoneal, 10 mg/kg, 24 h	–	reduction of bacterial load	90%
N=C(N)c1cccc(OCc2ccc(COc3cccc(C(=N)N)c3)cc2)c1	–	ATCC 13883	concentration not given, together with: rifampicin	–	MIC in combination	25 µg/mL
Cc1c(CN(C)C(=O)/C=C/c2cnc3c(c2)CC(NC(=O)OC(C)(C)C)C(=O)N3)oc2ccccc12 (stereo not shown)	broth microdilution	AR-0548	–	–	MIC	> 32 µg/mL
N=C(N)c1ccc(OCc2cc(COc3ccc(C(=N)N)cc3)cc(-c3ccccc3)c2)cc1	checkerboard	ATCC 13883	unit not given, together with: rifampicin	lower = stronger synergy	FICI	≤ 0.016
CN(C)c1ccc(O)c2c1C[C@H]1C[C@H]3[C@H](N(C)C)C(O)=C(C(N)=O)C(=O)[C@@]3(O)C(O)=C1C2=O	broth microdilution	NCTC 13438	–	baseline: 5% CO2 over ambient air	MIC fold shift	0.5
N=C(N)c1ccc(OCc2cccc(COc3ccc(C(=N)N)cc3)c2)cc1	–	ATCC 13883	concentration not given, together with: rifampicin	–	MIC in combination	25 µg/mL
NC[C@H]1O[C@H](O[C@H]2[C@H](O)[C@@H](O[C@H]3O[C@H](CO)[C@@H](O)[C@H](N)[C@H]3O)[C@H](N)C[C@@H]2N)[C@H](N)C[C@@H]1O	broth microdilution	NCTC 13438	–	baseline: 5% CO2 over ambient air	MIC fold shift	2

Excerpt of the above:
Compound	assay	test system	setting	scale	quantity	result
C[C@@H](O)[C@H]1C(=O)N2C(C(=O)O)=C(S[C@@H]3CN[C@H](C(=O)N(C)C)C3)[C@H](C)[C@H]12	–	ATCC 700603, mouse lung infection, lung	intraperitoneal, 10 mg/kg, 24 h	–	reduction of bacterial load	90%
N=C(N)c1cccc(OCc2ccc(COc3cccc(C(=N)N)c3)cc2)c1	–	ATCC 13883	concentration not given, together with: rifampicin	–	MIC in combination	25 µg/mL
